Measurements pooled from the literature.
Lines come from different studies, so protocols differ. Numbers after ± are the reported error.

COc1ccc([C@@H]2CC(=O)c3c(O)cc(O[C@@H]4O[C@H](CO[C@@H]5O[C@@H](C)[C@H](O)[C@@H](O)[C@H]5O)[C@@H](O)[C@H](O)[C@H]4O)cc3O2)cc1O
cell count (MRC5; trypan blue exclusion; 150 µg/mL, 24 h): 6670 ± 662

O=C1Nc2ccc(F)cc2C1=Cc1c(Cl)[nH]c2c1ccc1ccccc12
TGI (melanoma subpanel of NCI-60; 48 h): 11 µM

CC(=O)OC[C@H]1O[C@@H](Sc2sc(C(=O)c3ccc(C)cc3)c(N)c2-c2nc3ccccc3s2)[C@H](OC(C)=O)[C@@H](OC(C)=O)[C@H]1OC(C)=O
growth (Hs-578T; SRB; 10 µM, 48 h; relative to: untreated): 82.9%

COc1cc(CNC(=O)C[C@H](C)CCC=C(C)C)ccc1O
growth percent (U-251 CNS cancer cells; SRB; 10 µM, 48 h): 98.7%

COC(=O)c1ccccc1-c1c2ccc(=O)cc-2oc2cc(OCCCCC[P+](c3ccccc3)(c3ccccc3)c3ccccc3)ccc12
fluorescence ratio (HeLa cells; confocal microscopy; mitochondria; 100 nM; relative to: MitoTracker Deep Red): 0.065

COc1cc(CNC(=O)C[C@H](C)CCC=C(C)C)ccc1OCc1cn(-c2cccc([N+](=O)[O-])c2)nn1
growth percent (U-251 CNS cancer cells; SRB; 10 µM, 48 h): 40.1%

CC(=O)N[C@H](C(=O)N[C@H](C(=O)N[C@@H](CCCNC(=N)N)C(=O)N1Cc2ccccc2C[C@H]1C(=O)N[C@@H](Cc1ccccc1)C(N)=O)C1CCCCC1)C(C)C
cytokine level (MBP-specific BC-3 T cells; Bio-Plex multiplex, refers to: IL-2; 200 µg/mL, 24 h, together with: MBP87-99 antigen): < 2.7 pg/mL

CC[C@H](C)[C@H](NC(=O)[C@H](Cc1c[nH]cn1)NC(=O)[C@H](Cc1ccccc1)NC(=O)[C@@H](NC(=O)[C@H](C)NC(=O)[C@H](CC(N)=O)NC(=O)[C@H](Cc1c[nH]c2ccccc12)NC(=O)[C@@H](NC(=O)CNC(=O)CNC(=O)[C@H](CCCNC(=N)N)NC(=O)[C@H](CCCNC(=N)N)NC(=O)[C@H](CCCNC(=N)N)NC(=O)[C@H](CCC(N)=O)NC(=O)[C@H](CCCNC(=N)N)NC(=O)[C@H](CCCNC(=N)N)NC(=O)[C@H](CCCCN)NC(=O)[C@H](CCCCN)NC(=O)[C@H](CCCNC(=N)N)NC(=O)CNC(=O)[C@@H](N)Cc1ccc(O)cc1)C(C)C)[C@@H](C)O)C(=O)N[C@@H](Cc1c[nH]c2ccccc12)C(=O)N[C@@H](Cc1c[nH]cn1)C(=O)N[C@@H](CC(=O)O)C(N)=O
cells with small Htt103Q aggregates (HeLa expressing CFP-Htt103Q; 10 µM): decreased

O=Cc1c(O)ccc2ccccc12
log2 fold change (HUVEC; RNA sequencing, refers to: MCM4; 75 µM, 24 h; relative to: DMSO): -3.45

Cc1nc(C)c(C=[N+]([O-])C(C)(C)C)nc1C
apoptotic cells (rat cerebellar granule neurons; TUNEL staining; 300 µM, 2 h, together with: 150 µM MPP+ for 24 h): 31.3 ± 3.18%

CC(=O)OC[C@H]1O[C@@H](Sc2sc(C(=O)c3ccc(Br)cc3)c(N)c2-c2nc3ccccc3s2)[C@H](OC(C)=O)[C@@H](OC(C)=O)[C@H]1OC(C)=O
growth (SK-MEL-2; SRB; 10 µM, 48 h; relative to: untreated): 112%

CC(C)Cc1ccc(C(C)C(=O)[O][Pt]([NH2])([NH2])([Cl])([Cl])[O]C(=O)C(Cl)Cl)cc1 (stereo not drawn)
mean IC50 ratio (six human cancer cell lines; MTT; relative to: cisplatin over compound): ~31

COc1ccc(NC(=O)CCc2nc3cc(Cl)ccc3[nH]c2=O)cc1
BCL2 level (unspecified cells; concentration not given; relative to: untreated control): 0.448 fold

COc1cc(CNC(=O)C[C@H](C)CCC=C(C)C)ccc1OCc1cn(-c2ccccc2F)nn1
growth percent (RPMI-8226 leukaemia cells; SRB; 10 µM, 48 h): 81.8%

COc1cccc2c1C(=O)c1c(O)c3c(c(O)c1C2=O)CC(O)(C(=O)CO)CC3OC1CC(NC(=O)CCC2=C(C)C(=O)C=C(C(C)C)C2=O)C(O)C(C)O1 (stereo not drawn)
intracellular ROS level (human dermal fibroblasts; DCFDA fluorescence; concentration not given, 4 h; relative to: DMSO): increased

N.N.[Cl][Pt+].c1ccc2c(c1)cnc1ccccc12
selectivity index (HEL 299 and A549; resazurin; relative to: IC50 HEL 299 over A549): 13.8

COC(=O)c1ccccc1-c1c2ccc(=O)cc-2oc2cc(OCCCCC[P+](c3cc(C)cc(C)c3)(c3cc(C)cc(C)c3)c3cc(C)cc(C)c3)ccc12
Pearson coefficient (HeLa cells; confocal microscopy; together with: MitoTracker Deep Red): 0.877 ± 0.018

Cc1ccc(C2=Nn3c(N/N=C4/C(=O)Nc5ccc(Br)cc54)nnc3SC2)cc1
inhibition (SF-539; cell growth or viability, SRB; 10 µM): 12%

C[N+]1(CC(=O)OC2CCCCCCCCCCC2)CCCCC1
PSA protein level (LNCaP expressing AR-V7; inhibitor, Western blot; 10 µM, 24 h): inhibited

COc1cc(/C=C/C(=O)O)ccc1O
TNF-α level (BV-2; ELISA; 10 µM, together with: LPS 1.0 µg/mL): 234 pg/mL

COc1cc(CNC(=O)C[C@H](C)CCC=C(C)C)ccc1OCc1cn(-c2ccccc2[N+](=O)[O-])nn1
growth percent (U-251 CNS cancer cells; SRB; 10 µM, 48 h): 62.8%

FC(F)(F)c1ccnc(-c2cc(C(F)(F)F)ccn2)c1.FC(F)(F)c1ccnc(-c2cc(C(F)(F)F)ccn2)c1.[Cl-].[Cl-].[Ru+2].c1csc(-c2ccc(-c3ccc(-c4ccc(-c5nc6c7cccnc7c7ncccc7c6[nH]5)s4)s3)s2)c1
EC50 (SK-MEL-28; cell viability; normoxia, together with: green light 523 nm, 100 J/cm2): 0.12 µM

C=C(C)[C@@H]1CC[C@]2(C(=O)OCO/N=[N+](\[O-])N3CCCC3)CC[C@]3(C)[C@H](CC[C@@H]4[C@@]5(C)CC[C@H](OC(C)=O)C(C)(C)[C@@H]5CC[C@]43C)[C@@H]12
cells in G2 phase (B16-F10; PI flow cytometry; 0.50 µM): 9.95%

CC/C=C\C/C=C\C/C=C\C/C=C\C/C=C\C/C=C\CCC(=O)Nc1ccn(C2OC(CO)C(O)C2(F)F)c(=O)n1 (stereo not drawn)
total growth inhibition concentration (BT-549): 16.3 µM

COc1cc(C(=O)c2[nH]c(N)nc2-c2cccs2)cc(OC)c1OC
polymeric to soluble tubulin ratio (HeLa cells; western blot; 240 nM, 24 h; relative to: polymeric over soluble tubulin): 1.1 ± 0.1

Cc1cc(C)c2sc(NC(=O)C3CCN(S(=O)(=O)c4ccc(F)cc4)CC3)nc2c1
efferocytosis (wild-type mouse BMDM; flow cytometry; 10 µM, 6 h pretreatment, together with: apoptotic Jurkat cells 45 min; relative to: vehicle): increased

COc1cc(CNC(=O)C[C@H](C)CCC=C(C)C)ccc1OCc1cn(-c2ccc([N+](=O)[O-])cc2)nn1
growth percent (A498; SRB; 10 µM, 48 h): 92.6%

Cc1ccc(N=C2CC(=O)c3sc(C)nc3C2=O)cc1
effective concentration (HEK-293T; H4K20me1 level, inhibitor, western blot; 24 h): < 5 µM

CC(Cc1ccc(Cl)cc1)=C(c1ccc(Cl)cc1)c1ccc(OCCN(C)C)cc1
GI50 (SF-539; cell growth or viability, SRB): 4.77 µM

O=C(CCCCC1SCC2NC(=O)NC21)NCCCCC1CNC(=O)C(=O)N1CC1CCCN1CC(CC1CCCCC1)N1CC(Cc2ccc(O)cc2)N(CCc2ccccc2)C(=O)C1=O (stereo not drawn)
maximal viability inhibition (WM 266-4; CellTiter-Glo; 100 µM, 72 h): 42%

CCCCCCCCN(CCC(=O)Nc1ccccc1)C(=O)c1ccccn1
phospho-Akt level (HGPS fibroblasts; 2 µM, 10 days): increased

COc1ccc([C@@H]2CC(=O)c3c(O)cc(O[C@@H]4O[C@H](CO[C@@H]5O[C@@H](C)[C@H](O)[C@@H](O)[C@H]5O)[C@@H](O[C@H]5O[C@H](CO)[C@@H](O)[C@H](O)[C@H]5O)[C@H](O)[C@H]4O)cc3O2)cc1O
viability (A549; cell growth or viability, MTS; 100 µg/mL, 48 h): 43%

COc1ccc(OC)c(Nc2nc(NCCCO)c3ccccc3n2)c1
decrease in foci-positive cells (BCR-ABL1+ BRCA1-deficient 32Dcl3; refers to: GFP-RAD52 foci; 2.5 µM, together with: cisplatin; relative to: cisplatin alone): 2 to 2.5 fold

COc1cc(CNC(=O)C[C@H](C)CCC=C(C)C)ccc1OCc1cn(-c2cccc(Cl)c2)nn1
growth (CCRF-CEM; SRB; 10 µM, 48 h): 76.5%

CC[C@@]12CCc3[nH]c4ccccc4c3CCN(C[C@H]3O[C@H]31)C2
inhibition (BV-2; NO production; 6 µM, 1 h, 24 h stimulation, together with: LPS 800 ng/mL; relative to: LPS control): 50.5 ± 3.5%

COc1cc(CNC(=O)C[C@H](C)CCC=C(C)C)ccc1OCc1cn(-c2cccc(C(F)(F)F)c2)nn1
growth percent (U-251 CNS cancer cells; SRB; 10 µM, 48 h): 51%

CCN(CC)CC(=O)Nc1cccc(-n2cc(-c3ccc4ccc(-c5cn(-c6cccc(NC(=O)CN(CC)CC)c6)nn5)cc4c3)nn2)c1
colony formation (RCC4; 5 and 10 × IC50, 4 h, normoxia and hypoxia): decreased

COc1cc(CNC(=O)C[C@H](C)CCC=C(C)C)ccc1OCc1cn(-c2ccc(Cl)c(Cl)c2)nn1
growth percent (RPMI-8226 leukaemia cells; SRB; 10 µM, 48 h): 77.6%

O=C1NCC(Cc2ccccc2)N(CC2CCCN2CC(CC2CCCCC2)N2CC(Cc3ccc(O)cc3)N(CCc3ccccc3)C(=O)C2=O)C1=O (stereo not drawn)
spliced XBP1 share (WM 266-4; RT-PCR; 5 µM, 2 h): 36 ± 10%

For quick reference, copied from above:
FC(F)(F)c1ccnc(-c2cc(C(F)(F)F)ccn2)c1.FC(F)(F)c1ccnc(-c2cc(C(F)(F)F)ccn2)c1.[Cl-].[Cl-].[Ru+2].c1csc(-c2ccc(-c3ccc(-c4ccc(-c5nc6c7cccnc7c7ncccc7c6[nH]5)s4)s3)s2)c1
EC50 (SK-MEL-28; cell viability; normoxia, together with: green light 523 nm, 100 J/cm2): 0.12 µM

C=C(C)[C@@H]1CC[C@]2(C(=O)OCO/N=[N+](\[O-])N3CCCC3)CC[C@]3(C)[C@H](CC[C@@H]4[C@@]5(C)CC[C@H](OC(C)=O)C(C)(C)[C@@H]5CC[C@]43C)[C@@H]12
cells in G2 phase (B16-F10; PI flow cytometry; 0.50 µM): 9.95%

CC/C=C\C/C=C\C/C=C\C/C=C\C/C=C\C/C=C\CCC(=O)Nc1ccn(C2OC(CO)C(O)C2(F)F)c(=O)n1 (stereo not drawn)
total growth inhibition concentration (BT-549): 16.3 µM

COc1cc(C(=O)c2[nH]c(N)nc2-c2cccs2)cc(OC)c1OC
polymeric to soluble tubulin ratio (HeLa cells; western blot; 240 nM, 24 h; relative to: polymeric over soluble tubulin): 1.1 ± 0.1

Cc1cc(C)c2sc(NC(=O)C3CCN(S(=O)(=O)c4ccc(F)cc4)CC3)nc2c1
efferocytosis (wild-type mouse BMDM; flow cytometry; 10 µM, 6 h pretreatment, together with: apoptotic Jurkat cells 45 min; relative to: vehicle): increased
